Measured values gathered from unrelated publications.
Each numbered part is a random draw from the data of one study; scales do not carry over between parts. Positions count from the first letter of the parent shown.

Block 1
Target: Ras GTPase-activating protein-binding protein 1, C-terminal RGG region (G3BP1, Homo sapiens, UniProt Q13283)
Method: RNA Bind-n-Seq
Form: RNA
Matrix: in vitro
Concentration: 1 µM
Notes: whole 134-nt RNA, ends assumed
Added: 150 mM KCl
Baseline: input library
Direction: higher = stronger binding
Shared flanks, not repeated: GGGAGUUCUACAGUCCGACGAUC … UGGAAUUCUCGGGUGUCAAGG
`GUGCUACACAUCGUAUGUACCGAAUCGGGGAAAAAAAGGGGUUUUUUUGGGGAAAAAAAGGGGAAAGUAUUAUGUUACGCCGUUCGGAUC` has a log2 enrichment of 0.53.
The log2 enrichment of `UCCUGUGCUACACAUCGUAUGUACCGAAUCGGGGAAAAAAAGGGGAAAGGGGAAAGGGGAAAGUAUUAUGUUACGCCGUUCGGAUCUGCA` is reported as 2.68.
`GUCCUGUGCUACACAUCGUAUGUACCGAAUCGGGUUUUUGGGUUUUUGGGUUUUUGGGAAAGUAUUAUGUUACGCCGUUCGGAUCUGCAC` gave a log2 enrichment of 0.129.
The log2 enrichment of `GAGGGAGUUUGCAGAUACCUCAGGAUUCGUGACAAUGCCUUUAAAGAUCCAGGAGAGAUGUUCAGCUACUAGGAACUGCUAGCAAGUAUA` is reported as -0.963.
For `AGUCCUGUGCUACACAUCGUAUGUACCGAAUCGGGAAAAGGGGAAAAGGGAAAAGGGGAAAGUAUUAUGUUACGCCGUUCGGAUCUGCAC`, the log2 enrichment was 0.447.
`UGGGAGGUGGAUUUUGUUUAUUUUUUUAGCUCAUUGCCAGGGGUGGGAAUUUUUUUUUAAUAUGUGUCAUGAAUAAAGUUGUUUUUGAAA` has a log2 enrichment of 3.77.
The log2 enrichment of `CUCAAGUCCUGUGCUACACAUCGUAUGUACCGAAUCGGAAAAAGGAAAGGAGGAAAGUAUUAUGUUACGCCGUUCGGAUCUGCACUUCCA` is reported as -1.68.
`UGCUAGGACUUGAUGGAUCACUAGUUUUUCUGGUAAGUAAAACUAAUUUUUUUUUUUUUUUUUUGAGACGGAAUCUCACUCUGUCACCCA` has a log2 enrichment of 0.458.
`AAGUCCUGUGCUACACAUCGUAUGUACCGAAUCGGUUUUGGGGUUUUGGGGUUUUGGAAAGUAUUAUGUUACGCCGUUCGGAUCUGCACU` has a log2 enrichment of -0.647.
For `GUCCUGUGCUACACAUCGUAUGUACCGAAUCGGGCCCCCGGGCCCCCGGGGCCCCCGGAAAGUAUUAUGUUACGCCGUUCGGAUCUGCAC`, the log2 enrichment was -1.85.

Block 2
Target: ABI1, truncated, D143A, DHFR fusion (Arabidopsis thaliana)
Method: DHFR PCA, deep sequencing
Matrix: yeast
Notes: methotrexate growth selection, single substitutions
Added: (+)-ABA 0 µM
Baseline: wild-type fitted maximum
Direction: higher = stronger binding
Starting sequence: PYL1, truncated, DHFR fusion (Arabidopsis thaliana); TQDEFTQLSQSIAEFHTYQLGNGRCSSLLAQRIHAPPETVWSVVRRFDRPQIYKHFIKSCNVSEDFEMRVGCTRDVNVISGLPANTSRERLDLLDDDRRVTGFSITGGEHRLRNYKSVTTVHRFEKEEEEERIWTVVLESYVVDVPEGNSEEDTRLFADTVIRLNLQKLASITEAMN
`I33E`: “relative binding score” 3.13%.
Under “relative binding score”, `I105W` is recorded as 3.69%.
Under “relative binding score”, `L156G` is recorded as -3.13%.
Under “relative binding score”, `S150W` is recorded as 3.17%.
`G71Y` — result for “relative binding score”: -0.688%.
For `F103V`, “relative binding score” read -2.7%.
For `L166G`, “relative binding score” read 6.08%.
Under “relative binding score”, `R32A` is recorded as 17.2%.
`N177T` — result for “relative binding score”: 35.8%.
`E127Y`: “relative binding score” 15.2%.
For `D75L`, “relative binding score” read 27.9%.
For `E131I`, “relative binding score” read 16%.
`I12W` — result for “relative binding score”: -0.708%.
For `S150M`, “relative binding score” read 2.89%.
`G148A` — result for “relative binding score”: 3.7%.
Under “relative binding score”, `Q31R` is recorded as 5.85%.
For `E125F`, “relative binding score” read 11.1%.
For `A170C`, “relative binding score” read 6.93%.

Block 3
Target: CCNB3, cyclin fold, Cln2 fusion (human)
Method: yeast growth competition, sequencing
Matrix: yeast
Notes: weak parent motif
Baseline: not given
Direction: higher = stronger binding
Starting sequence: CABLES2 docking peptide (human); ICAKRSLCAAFSV
For `I1A`, “normalised enrichment score” read 0.116.
`K4A` — result for “normalised enrichment score”: -0.0746.
For `S12A`, “normalised enrichment score” read 0.528.
For `C2A`, “normalised enrichment score” read 0.00539.
For `F11A`, “normalised enrichment score” read 0.246.

Block 4
Target: UBE2U UBC core domain (UniProt Q5VVX9)
Method: yeast two-hybrid
Matrix: yeast
Notes: mostly zero background
Baseline: not given
Direction: higher = stronger interaction
B1: PRKN RING domain (UniProt O60260); chain LIATNSRNITCITCTDVRSPVLVFQCNSRHVICLDCFHLYCVTRLNDRQFVHDPQLGYSLPCVAGCPNSLIKELHH
B2: ZNRF3 RING domain (UniProt Q9ULT6); chain DTLSSSSTSDCAICLEKYIDGEELRVIPCTHRFHRKCVDPWLLQHHTCPHCRHNIIEQKGNP
B3: RNF24 RING domain (UniProt Q9Y225); chain KVKELNLHELCAVCLEDFKPRDELGICPCKHAFHRKCLIKWLEVRKVCPLCNMPVLQLAQLH
B4: TRIM48 RING domain (UniProt Q8IWZ4); chain ISQVFQRELTCPICMNYFIDPVTIDCGHSFCRPCFYLNWQDIPILTQCFECIKTIQQRNLKT
B5: RNF135 RING domain (UniProt Q8IUD6); chain PVWLAEDDLGCIICQGLLDWPATLPCGHSFCRHCLEALWGARDARRWACPTCRQGAAQQPHLR
B6: TRIM22 RING domain (UniProt Q8IYM9); chain KEVKMSPQEGQKRDVCEHHGKKLQIFCKEDGKVICWVCELSQEHQGHQTFRINEVVKECQEK
B7: Ltn1 RING domain (UniProt Q6A009); chain VDKRFEGVEDCMICFSVIHGFNYSLPKKACRTCKKKFHSACLYKWFTSSNKSTCPLCRETFF
B8: RNF181 RING domain (UniProt Q9P0P0); chain VIRGSQAELKCPVCLLEFEEEETAIEMPCHHLFHSSCILPWLSKTNSCPLCRYELPTDDDTY
B9: DTX1 RING domain (UniProt Q86Y01); chain QKVKNPPDEDCTICMERLVTASGYEGVLRHKGVRPELVGRLGRCGHMYHLLCLVAMYSNGNKDGSLQCPTCKAIYGEKTGTQ
Target sequence (chain): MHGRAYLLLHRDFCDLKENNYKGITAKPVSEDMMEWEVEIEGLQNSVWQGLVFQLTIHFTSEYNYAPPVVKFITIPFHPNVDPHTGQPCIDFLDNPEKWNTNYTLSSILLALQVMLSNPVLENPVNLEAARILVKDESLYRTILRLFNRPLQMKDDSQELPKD
For `MDDQGCPRCKTTKYRNPSLKLMVNVCGHTLCESCVDLLFVRGAGNCPECGTPLRKSNFRV (MNAT1 RING domain (UniProt P51948))`, “lacZ reporter activity” read 0.
Under “lacZ reporter activity”, `B1 (PRKN RING domain)` is recorded as 5130.
For `B2 (ZNRF3 RING domain)`, “lacZ reporter activity” read 0.
Under “lacZ reporter activity”, `NTAPSLTVPECAICLQTCVHPVSLPCKHVFCYLCVKGASWLGKRCALCRQEIPEDFLDK (RNF146 RING domain (UniProt Q9NTX7))` is recorded as 3320.
`B3 (RNF24 RING domain)`: “lacZ reporter activity” 0.
`B4 (TRIM48 RING domain)` — result for “lacZ reporter activity”: 0.
For `B5 (RNF135 RING domain)`, “lacZ reporter activity” read 12000.
`KITELNPHLMCVLCGGYFIDATTIIECLHSFCKTCIVRYLETSKYCPICDVQVHKTRPLL (BMI1 RING domain (UniProt P35226))` — result for “lacZ reporter activity”: 15800.
Under “lacZ reporter activity”, `ALDRLEKLLRCSRCTNILREPVCLGGCEHIFCSNCVSDCIGTGCPVCYTPAWIQDLKI (BARD1 RING domain (UniProt Q99728))` is recorded as 13600.
`KLWDINAHITCRLCSGYLIDATTVTECLHTFCRSCLVKYLEENNTCPTCRIVIHQSHPLQ (PCGF3 RING domain (UniProt Q3KNV8))` — result for “lacZ reporter activity”: 0.
For `B6 (TRIM22 RING domain)`, “lacZ reporter activity” read 0.
`B7 (Ltn1 RING domain)`: “lacZ reporter activity” 0.
`QLRRLQEERTCKVCLDRAVSIVFVPCGHLVCAECAPGLQLCPICRAPVRSRVRTF (BIRC7 RING domain (UniProt Q96CA5))` — result for “lacZ reporter activity”: 0.
`B8 (RNF181 RING domain)` — result for “lacZ reporter activity”: 16100.
For `B9 (DTX1 RING domain)`, “lacZ reporter activity” read 6700.

A few entries again (block 2):
Under “relative binding score”, `L156G` is recorded as -3.13%.
`N177T` — result for “relative binding score”: 35.8%.
For `L166G`, “relative binding score” read 6.08%.
`I33E`: “relative binding score” 3.13%.
For `S150M`, “relative binding score” read 2.89%.
For `F103V`, “relative binding score” read -2.7%.
`E127Y`: “relative binding score” 15.2%.
